{"data": "Published values of several laboratories", "organism": "Klebsiella pneumoniae", "note": "Each line is one published result; not all experiments were run side by side."}
{"SMILES": "CC1(C)[C@H](NC(=O)/C(=N\\OC2(C(=O)O)CCCC2)c2csc(N)n2)C(=O)N1OS(=O)(=O)O", "test": "agar dilution", "test system": "09-20, NDM-1", "MIC": "0.25 µg/mL"}
{"SMILES": "CCCCCCCC(=O)N[C@@H](CCN)C(=O)N[C@H](C(=O)N[C@@H](CCN)C(=O)N[C@H]1CCNC(=O)[C@H]([C@@H](C)O)NC(=O)[C@H](CCN)NC(=O)[C@H](CCN)NC(=O)[C@H](Cc2cc(F)c(F)c(F)c2)NC(=O)[C@@H](CC(C)C)NC(=O)[C@H](CCN)NC1=O)[C@@H](C)O", "test": "broth microdilution", "test system": "ATCC 13883, colistin-susceptible", "MIC": "8 to 16 µg/mL"}
{"SMILES": "CC[C@H](C)[C@H](NC(=O)[C@@H](CCCNC(=N)N)NC(=O)[C@H](CCCNC(=N)N)NC(=O)[C@@H]1CCCN1C(=O)[C@@H]1CCCN1C(=O)[C@H](CCCNC(=N)N)NC(=O)[C@@H]1CCCN1C(=O)[C@H](CCCNC(=N)N)NC(=O)[C@@H]1CCCN1C(=O)[C@H](CC(C)C)NC(=O)[C@H](Cc1ccc(O)cc1)NC(=O)[C@@H]1CCCN1C(=O)[C@@H]1CCCN1C(=O)[C@H](CCCCN)NC(=O)[C@H](CC(=O)O)NC(=O)[C@@H](N)C(C)C)C(=O)N[C@@H](Cc1ccc(O)c([N+](=O)[O-])c1)C(=O)N[C@@H](CC(N)=O)C(=O)N[C@H](CCCNC(=N)N)C(N)=O", "test": "broth microdilution", "test system": "DSM 681", "setting": "18 h, 37 °C, 25% MHB2", "MIC": "8 µg/mL"}
{"SMILES": "COc1ccc2ccc(O)c(/C=N/[C@H]3CCCC[C@H]3/N=C/c3cc(C(C)(C)C)ccc3O)c2c1", "test": "bacterial growth, broth microdilution", "test system": "carbapenem-resistant", "MIC": "> 40 µM"}
{"SMILES": "N=C(N)NCCC[C@@H]1NC(=O)[C@H](CCCNC(=N)N)NC(=O)[C@@H](CCCNC(=N)N)NC(=O)[C@@H](CCCNC(=N)N)NC(=O)[C@@H](C(c2ccccc2)c2ccccc2)NC(=O)[C@@H](Cc2c[nH]c3ccccc23)NC(=O)[C@@H](C(c2ccccc2)c2ccccc2)NC1=O", "test system": "ATCC 700603, ESBL SHV-18", "MIC": "> 64 µg/mL"}
{"SMILES": "CC[C@H](C)[C@H](NC(=O)[C@@H](CCCNC(=N)N)NC(=O)[C@H](CCCNC(=N)N)NC(=O)[C@@H]1CCCN1C(=O)[C@@H]1CCCN1C(=O)[C@H](Cc1c[nH]c2ccccc12)NC(=O)[C@@H]1CCCN1C(=O)[C@H](CCCNC(=N)N)NC(=O)[C@@H]1CCCN1C(=O)[C@H](CC(C)C)NC(=O)[C@H](Cc1ccc(O)cc1)NC(=O)[C@@H]1CCCN1C(=O)[C@@H]1CCCN1C(=O)[C@H](CCCCN)NC(=O)[C@H](CC(=O)O)NC(=O)[C@@H](N)C(C)C)C(=O)N[C@@H](Cc1ccc(O)cc1)C(=O)N[C@@H](CC(N)=O)C(=O)N[C@H](CCCNC(=N)N)C(N)=O", "test": "broth microdilution", "test system": "DSM 681", "setting": "18 h, 37 °C, 25% MHB2", "MIC": "4 µg/mL"}
{"SMILES": "CC[C@H](C)[C@H](NC(=O)[C@H](C)NC(=O)[C@@H](NC(=O)[C@H](CC(=O)O)NC(=O)[C@H](CCCCN)NC(=O)[C@H](CO)NC(=O)[C@@H](NC(=O)[C@H](CC(N)=O)NC(=O)[C@H](C)NC(=O)[C@@H](NC(=O)[C@H](CCC(=O)O)NC(=O)[C@H](CCCCN)NC(=O)[C@@H](NC(=O)[C@@H](NC(=O)[C@H](Cc1c[nH]cn1)NC(=O)[C@H](CCCCN)NC(=O)[C@@H](NC(=O)[C@H](CCCCN)NC(=O)[C@H](CCCCN)NC(=O)[C@@H](NC(=O)[C@H](CC(C)C)NC(=O)[C@H](CCCCN)NC(=O)[C@H](CC(N)=O)NC(=O)[C@H](Cc1ccccc1)NC(=O)[C@H](CCCNC(=N)N)NC(=O)[C@H](CCCCN)NC(=O)[C@H](CCCNC(=N)N)NC(=O)[C@H](Cc1ccccc1)NC(=O)CN)C(C)C)C(C)C)[C@@H](C)O)[C@@H](C)CC)[C@@H](C)O)C(C)C)C(C)C)C(=O)N[C@H](C(=O)N[C@@H](C)C(=O)NCC(=O)N[C@@H](CO)C(=O)NCC(=O)N[C@H](C(=O)N[C@@H](C)C(=O)N[C@H](C(=O)NCC(=O)N[C@@H](C)C(=O)N[C@@H](C)C(=O)N[C@@H](CCSC)C(N)=O)C(C)C)C(C)C)C(C)C", "test system": "DSM 30104, CAMHB with 10% mouse serum", "MIC": "0.063 µg/mL"}
{"SMILES": "C#CCNC(=O)C1(O/N=C(\\C(=O)N[C@@H]2C(=O)N(OS(=O)(=O)O)C2(C)C)c2csc(N)n2)CC1", "test": "agar dilution", "test system": "2146 NDM-1", "MIC": "8 µg/mL"}
{"SMILES": "CCn1c(-c2ccc(-c3ccc(F)cc3)cc2)c(-c2ccc(-c3ccc(F)cc3)cc2)n(CC)c1=[Se]", "test": "broth microdilution", "test system": "carbapenem-resistant BAA-1705", "setting": "24 h", "MIC": "> 40 µM"}
